Published values from different studies.
Lines come from different studies, so protocols differ. “And” joins repeats or separate records; there may be more than shown. ± marks the error that the study gave.

Compound | tested on | test | system | conditions | scale | endpoint | result
C[C@H]1[C@H](OC(=O)CCC(=O)O)O[C@@H]2O[C@@]3(C)CC[C@H]4[C@H](C)CC[C@@H]1[C@@]24OO3 | β-hematin formation | detergent-based |  |  |  | IC50 | inactive
CC(=O)ON=C1C=CC(=C(C#N)c2ccccc2)C=C1 | pig GSK3 alpha/beta | enzyme activity, inhibitor, ADP-Glo |  | 2 µM, about MIC/10, together with: ATP 10 µM |  | remaining activity | 103%
O=[N+]([O-])c1ccc2c(c1)S(=O)(=O)C=C2 | Toxoplasma gondii | parasite growth | HFF, bradyzoite, alkaline-induced |  |  | EC90 | 9.66 µM
c1coc(-c2n[nH]cc2-c2ccnc3ccccc23)c1 | YAK1 (Candida albicans) | kinase binding, MIB/MS competition | Candida albicans lysate | 10 µM | baseline: DMSO | log2 fold change | -0.26
CC(Nc1nc(N2CCCC2)nc2ccccc12)c1ccccc1 (stereo not drawn) | importin α/β1 | cMyc nuclear import, high content imaging | HeLa Kyoto reporter | 0.03 µM, 2 h |  | cells with nuclear reporter | 95.3% and 97.5%
O=C(Nc1ccncc1)c1cc([N+](=O)[O-])ccc1Cl | Toxoplasma gondii | parasite growth | HFF, bradyzoite, alkaline-induced |  |  | EC50 | 1.92 µM
CN1C(C(=O)Nc2ccccn2)=C(O)c2sc(Cl)cc2S1(=O)=O | Gal4-VP16 | reporter gene, Gal4-VP16 control reporter |  | 30 µM | baseline: vehicle | activation | 0.83 fold
OCC(CCc1ccc(O)cc1)c1ccc(O)cc1 (stereo not drawn) | STAT3 | reporter gene, inhibitor | NCI-H460 |  |  | IC50 | 3.34 µg/mL
CCCCCCCC(=O)c1cc(OC)c(OC)c(OC)c1CC(=O)OCC | Gal4-VP16 | reporter gene, Gal4-VP16 control reporter |  | 10 µM | baseline: vehicle | activation | 1.02 fold
Cc1nn(CC(F)(F)F)cc1Nc1nccc(NCc2ccc(S(N)(=O)=O)cc2)n1 | 403 human wild-type kinases | scanMAX |  |  | PoC below 10 | number of kinases bound | 1
CC[C@H](C)C(=O)O[C@H]1C[C@H](O)C=C2C=C[C@H](C)[C@H](CC[C@@H](O)C[C@@H](O)CC(=O)O)[C@H]21 | Gal4-VP16 | reporter gene, Gal4-VP16 control reporter |  | 10 µM | baseline: vehicle | activation | 1.12 fold
Cc1nn(CC(F)(F)F)cc1Nc1ncc(C2CC2)c(NCCCNC(=O)C2CCC2)n1 | 403 human wild-type kinases | scanMAX |  |  | PoC below 10 | number of kinases bound | 11
O=C(O)/C=C/c1cnc[nH]1 | gasdermin E (human) | inhibitor |  | 100 µM, 2 h |  | inhibition | 79.4%
O=C(O)CCCOc1cccc(CNC(=O)C#Cc2cn(Cc3ccc(C(=O)O)cc3)c(=O)[nH]c2=O)c1 | MMP-8 | inhibitor, FRET |  | 10 µM |  | remaining MMP-8 activity | 113 ± 2%
NS(=O)(=O)c1ccc(CNc2ccnc(Nc3cccc(CN4CCOCC4)c3)n2)cc1 | 403 human wild-type kinases | scanMAX binding |  | 1 µM, hit below 10% of control | baseline: hits over kinases tested, direction not given | selectivity score S10 | 0.007
C=C1C(=O)O[C@@H]2C[C@@]3(C)CCCC(=C)[C@@H]3C[C@H]12 | Gal4-VP16 | reporter gene, Gal4-VP16 control reporter |  | 10 µM | baseline: vehicle | activation | 1.02 fold
O=C(NCCCNc1nc(Nc2cccc(NC(=O)N3CCCC3)c2)ncc1C1CC1)C1CCC1 | 403 human wild-type kinases | scanMAX |  |  | PoC below 10 | number of kinases bound | 30
[Mg+2] | PP2C | enzyme activity |  | concentration not given |  | activity class | active
NS(=O)(=O)c1ccc(CNc2nc(Nc3cccc(NC(=O)N4CCCC4)c3)ncc2C2CC2)cc1 | 403 human wild-type kinases | scanMAX |  |  | PoC below 10 | number of kinases bound | 1
COCc1nn(Cc2ccc(Cn3ccccc3=O)cc2)cc1C(=O)NCc1cccc(OC)c1F | trypsin |  |  |  |  | IC50 | > 40 µM
[Fe+2] | PP2C | enzyme activity |  | concentration not given |  | activity class | active
OC[C@H]1O[C@@H]2O[C@H]3[C@H](O)[C@@H](O)[C@@H](O[C@H]4[C@H](O)[C@@H](O)[C@@H](O[C@H]5[C@H](O)[C@@H](O)[C@@H](O[C@H]6[C@H](O)[C@@H](O)[C@@H](O[C@H]7[C@H](O)[C@@H](O)[C@@H](O[C@H]8[C@H](O)[C@@H](O)[C@@H](O[C@H]1[C@H](O)[C@H]2O)O[C@@H]8CO)O[C@@H]7CO)O[C@@H]6CO)O[C@@H]5CO)O[C@@H]4CO)O[C@@H]3CO | LuxR | Escherichia coli sensor |  | 10 µM | higher = stronger induction | bioluminescence induction | 772 ± 31 RLU
Oc1ccccc1-c1n[nH]cc1-c1ccnc2ccccc12 | MKK2 (Candida albicans) | kinase binding, MIB/MS competition | Candida albicans lysate | 10 µM | baseline: DMSO | log2 fold change | 0.44
Cc1nn(CC(F)(F)F)cc1Nc1ncc(C2CC2)c(NCCc2c[nH]cn2)n1 | 403 human wild-type kinases | scanMAX binding |  | 1 µM, hit below 10% of control | baseline: hits over kinases tested, direction not given | selectivity score S10 | 0.005
Cc1ccc(Nc2nccc(N(C)c3ccc4c(C)n(C)nc4c3)n2)cc1S(N)(=O)=O | CaMKII (rat) | kinase activity, inhibitor |  | 10 µM |  | inhibition | 10%
CCCCCCCC(=O)OC[C@H](COP(=O)(O)O[C@@H]1[C@H](O)[C@H](O)[C@@H](OP(=O)(O)O)[C@H](OP(=O)(O)O)[C@H]1O)OC(=O)CCCCCCC | Kv7.2/Kv7.3(EEE) mutant channel | channel open probability, activator, fitted PIP2 binding model |  | model 5 | baseline: channel without bound PIP2 | efficacy factor E2 | 0.11
Cc1nn(CC(F)(F)F)cc1Nc1nccc(NCCCNC(=O)C2CCC2)n1 | 403 human wild-type kinases | scanMAX binding |  | 1 µM, hit below 10% of control | baseline: hits over kinases tested, direction not given | selectivity score S10 | 0.002
O=C(O)/C=C/C=C/C(=O)O | gasdermin E (human) | inhibitor |  | 100 µM, 2 h |  | inhibition | 79.1%
O=C(Nc1cccc(Nc2ncc(Br)c(NCCc3cnc[nH]3)n2)c1)N1CCCC1 | 403 human wild-type kinases | scanMAX |  |  | PoC below 10 | number of kinases bound | 8
Cn1c(=O)c2[nH]cnc2n(C)c1=O | cGMP antibody | acetylated cGMP EIA |  |  |  | EC50 | > 1000 µM

Some of these lines once more:
Compound | tested on | test | system | conditions | scale | endpoint | result
c1coc(-c2n[nH]cc2-c2ccnc3ccccc23)c1 | YAK1 (Candida albicans) | kinase binding, MIB/MS competition | Candida albicans lysate | 10 µM | baseline: DMSO | log2 fold change | -0.26
CC(Nc1nc(N2CCCC2)nc2ccccc12)c1ccccc1 (stereo not drawn) | importin α/β1 | cMyc nuclear import, high content imaging | HeLa Kyoto reporter | 0.03 µM, 2 h |  | cells with nuclear reporter | 95.3% and 97.5%
O=C(Nc1ccncc1)c1cc([N+](=O)[O-])ccc1Cl | Toxoplasma gondii | parasite growth | HFF, bradyzoite, alkaline-induced |  |  | EC50 | 1.92 µM
